Measurements collected from several papers.
A part holds a random share of what one study measured.

Series 1
Target: Hepatocyte nuclear factor 3-alpha (Foxa1, Mus musculus, UniProt P35582, residues 1-468, full length assumed)
UniProt P35582, sequence (whole entry, looked up): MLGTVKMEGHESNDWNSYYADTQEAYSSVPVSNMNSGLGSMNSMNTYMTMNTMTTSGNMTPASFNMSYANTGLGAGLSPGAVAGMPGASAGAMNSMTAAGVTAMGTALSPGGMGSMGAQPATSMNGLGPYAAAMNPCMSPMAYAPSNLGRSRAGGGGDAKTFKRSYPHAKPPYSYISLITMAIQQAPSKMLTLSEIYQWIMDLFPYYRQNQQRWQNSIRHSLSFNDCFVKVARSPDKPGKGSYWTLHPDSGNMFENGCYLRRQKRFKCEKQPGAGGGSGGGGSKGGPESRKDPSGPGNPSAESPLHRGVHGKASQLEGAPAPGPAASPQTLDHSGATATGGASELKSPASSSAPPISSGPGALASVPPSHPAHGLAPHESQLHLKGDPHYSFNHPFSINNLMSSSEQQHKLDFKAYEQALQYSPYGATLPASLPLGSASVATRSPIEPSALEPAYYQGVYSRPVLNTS
Method: EMSA with sequencing
Form: double-stranded DNA, one strand shown
Medium: in vitro
Tested at: 10 and 20 nM
Notes: whole designed probe, mean of two concentrations, ends assumed
Baseline: negative control set to 0
Reading: higher = stronger binding
Strand | normalised bound fraction
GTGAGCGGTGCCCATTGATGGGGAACTGTCCTGGAAGAAGTCCTTATGTGTATGATCTTACTGTAATACCCAGTCTTTATGGACCCATGGCAGTTGACCACTATACTTCATGTACAAAGTAATCTTAGGAATGGGAAATGGTATTACTTTGAAAATGGCAACGTGTCCCTAGACTGTTAAGGATCAAATAGTGATGCAAGCAGCATATGTGCTTTTTAATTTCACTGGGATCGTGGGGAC | -0.00934 ratio
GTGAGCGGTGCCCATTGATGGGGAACAATTTCCTGTGCTCTCTTTCCTGCCCTCATTCAAGTGGTCACCTTCCTTATTTCCCTCAGAAATACTCACAGAAGCTGTCAGAAGGGTTATGAGTCAACACTCACGTGCTTGAACCCACATGTCTATCAGCCAACCTTGGTGTGGCTGGACCTCACATTCTGTTTGCCCTTCTGTGATGGATGAACTTGTGTTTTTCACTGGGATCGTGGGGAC | 0.0712 ratio
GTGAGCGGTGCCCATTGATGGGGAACCACATAGACTACAGTCTATGAAAAACATATTCATTTTTTAGGATAATATATAAGATCTCTGAAATGACAATTCACACAAAAGTAATAAAAATGTAAACAAGCATCAAAACTGATACAACAGATCACACTAATTGCCAAAAGTGCAGAAAGAGAAAAATTGGGTATAACAGCAATAACCTTATAAAATGTCAGATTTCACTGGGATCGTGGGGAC | 0.295 ratio
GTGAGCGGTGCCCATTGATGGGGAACAGCAGAACTAATTTATCAATTCCTTAAATACATATTAATGCATACCAAGGGCAGACACTCTGACTTAATAGGAGGATATTGAGAATAAATATAAGTAAACAAGAAATTTTATAATATGTTAGAAGATAGTAAATGCTGTAAAAAATATTTAGAGTGAGGAAAAGGAGTTCAAGACAGCAGAAAAAAAAGTGAATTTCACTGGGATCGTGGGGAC | 0.406 ratio
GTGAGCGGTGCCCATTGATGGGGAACCCTGAAGGCAGCTGGGGTCAGGGAACAAGGCAACTGAATATCCTCCATCAGGAAATCCTAAGAGAATAAAAAGACCAGTCTTGTAACATAAATATAATCTTCTAATCAAATTAGCCAATTAGAAAAACATTTTTAAGAAAAGGCAATCTTTTACCAATTTGTCCTATGTATCTTTTGCATTTTTTCTCCCTAATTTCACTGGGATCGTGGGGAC | -0.0168 ratio
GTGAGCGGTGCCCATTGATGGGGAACAGGTAGATCAAGTACTCATATCTCTATGTACAGATGACAATAAGTGATTTCTCAGGAGCAAACAAGGGGAGTTATTGTGATTGTCTGATGGTTAGATTACTCTGAGACTTACTCTGTTTCAACTTTCCACCTTTTCTTTATTTTCCGTCCCAGACAGAAAGATTCTTCTTCTAGATAGACTGTTACTTCTACTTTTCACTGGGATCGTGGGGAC | 0.0678 ratio
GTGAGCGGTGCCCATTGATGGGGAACCTCATTCCTTGCTTCCGCCAATAATCTGACTAGTAAAGAAGTCACTGCATGCCACAAATTGTCAGTGCTGACTTCCTCAACAAGGAAGTTATTAAATTACTTATTTAATATATGAGTGACTCAGATGCAAATTCCATCTTGAGAATACCAACTCCTGATGCCAACTGATTGTCAGTCATGGCTACAACAGGAGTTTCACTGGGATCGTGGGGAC | -0.021 ratio
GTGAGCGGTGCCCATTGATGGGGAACAAAGATGGCATGTTGTGATTATAAACCACAGAAGAAATCTCTAATTAGTCATCCTTCTCTGAAAAATTCATTAATACTGATTAAGCCTGCAGAGTCAACAGTGGAATTCTAGTCAAGCAGAACATTTATGGAGTGGCTTTGAAGGAGCTATGAATCGATTGTTCCCAGAAGAGCAGGTCTACCCTCCCAAGAATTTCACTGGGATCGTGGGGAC | 0.0807 ratio

Series 2
Target: Interferon regulatory factor 3, full length, phosphomimetic (IRF3, Homo sapiens, UniProt Q14653, residues 1-427, S386D/S396D/S398D/S402D/T404D/S405D)
Method: protein-binding microarray
Form: double-stranded DNA, one strand shown
Medium: in vitro
Tested at: 2540 nM top
Notes: 60-bp whole probe
Added: salmon DNA 0.4 mg/ml
Baseline: random background probes
Reading: higher = stronger binding
All sequences stand within: GCCTAGCAC … GTCTTGATTCGCTTGACGCTGCTG
Target sequence (chain): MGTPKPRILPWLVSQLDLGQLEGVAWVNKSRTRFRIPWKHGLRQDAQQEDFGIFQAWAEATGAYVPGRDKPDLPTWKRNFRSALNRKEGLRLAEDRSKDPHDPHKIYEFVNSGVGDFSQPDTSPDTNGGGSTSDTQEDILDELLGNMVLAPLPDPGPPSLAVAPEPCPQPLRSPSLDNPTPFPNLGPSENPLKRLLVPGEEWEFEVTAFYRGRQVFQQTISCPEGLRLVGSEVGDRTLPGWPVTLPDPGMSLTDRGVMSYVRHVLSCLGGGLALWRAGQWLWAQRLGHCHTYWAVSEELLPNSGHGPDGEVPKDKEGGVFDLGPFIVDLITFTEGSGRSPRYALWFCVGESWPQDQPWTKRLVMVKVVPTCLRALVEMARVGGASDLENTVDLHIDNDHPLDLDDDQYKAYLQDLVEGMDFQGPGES
Strand | fitted relative affinity
TTAGATTTCAGTTACGATTAGTGCTAG | 1.74 z-score
GACGGTTTCGACTTTCGGGGCGTGCTA | 3.9 z-score
TTAGGTTTCCGGACTGGGTTAGTGCTA | 4.19 z-score
TTAGGTCTCGGTTTCGGTTTGTGCTAG | 7.12 z-score
TTAGGTCTTGGTCTCGGTTAGTGCTAG | -0.152 z-score
TCACTTCTGGATCTCAGACTGTGCTAG | 1.5 z-score
GACGGACTGCTACTCCTGACGTGCTAG | -0.576 z-score
TTAGGTATCGCGACTGGGTTAGTGCTA | -0.201 z-score
TGAGATATCGGGTATCGATTAGTGCTA | 0.0627 z-score
TTAGGTCTCCTTATTCTTTAGTGCTAG | 2.48 z-score
GACAGTATCCTTTTCCTGACGTGCTAG | 8.42 z-score
TCACAATTCTCTTTTCAACTGTGCTAG | 1.7 z-score
TTAGGACTGGGGTTTCGGATAGTGCTA | 1.55 z-score
AACGATGCAAGTGCCCTTCGGTGCTAG | -0.432 z-score
TTAGAACTGGGGTTTCAATTAGTGCTA | -0.288 z-score
TCTTTTTGCACTCTCTACATGTGCTAG | 1.72 z-score
GACGGTCTCGGTATCGGGTCGTGCTAG | 2.15 z-score
TTAGGTTTCGGGACTGGGTGAGTGCTA | 4.34 z-score
TTCGATATCAGTTTCGATTAGTGCTAG | 4.87 z-score
TTAGGTTTCCTTTCCCTCTAGTGCTAG | 10.2 z-score
TTAGGACTGGTGTATCGGTTAGTGCTA | 0.432 z-score
TTAGATTTCCGGTTTCGATTAGTGCTA | 4.52 z-score
GACGGTATGCTACTGCTGACGTGCTAG | -0.517 z-score
GACGGTTGCCTACTGCTGACGTGCTAG | 1.62 z-score
GACGGTTTCGCACTGGGGACGTGCTAG | 3.66 z-score

Series 3
Target: RNA binding protein fox-1 homolog 2, RRM domain, GST-SBP tag (RBFOX2, Homo sapiens, UniProt O43251-10, residues 100-194)
Method: RNA Bind-n-Seq
Form: RNA
Medium: in vitro
Tested at: 365 nM
Notes: natural RNA segment, single round, ends assumed
Baseline: no-protein control
Reading: higher = stronger binding
Construct (chain): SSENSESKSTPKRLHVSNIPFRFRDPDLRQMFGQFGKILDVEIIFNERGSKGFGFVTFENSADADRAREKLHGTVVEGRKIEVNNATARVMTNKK
Strand | RBNS enrichment (R)
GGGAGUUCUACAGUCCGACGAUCAUCAUGAGGGCCACCUCCACAUUGUCCCCUGCAGAAUAAAUGCGGAUGACAGAAAGCUUAUGCUGUCUACCACUGAACAGUGAUGGAGAUGGUGCUAAGUUUUUACAGUUUGGAAUUCUCGGGUGCCAA | 0.362
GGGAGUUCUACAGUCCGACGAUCAAAGCUCUCUCUGAAUGUACUGUGUGACAAUGCAUCAUGCAUGAACCUUCGGUCAGGGAUGUCGUUGGGGAAGUGACUUCAAAAGUAUUCAAAAUUUGACAUGCUGUUUGUGGAAUUCUCGGGUGCCAA | 0.401
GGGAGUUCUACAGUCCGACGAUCGCUGUGCUGCUGCUCGAAGCAGAUGGUUUUGACUGUCUUUUUGCUCUUUCCUAUAUAAUGAAUAGAUGAGUGAAAGGAGUUUUCUUUUUCUCUUUAGUACUUACGUAUUGUGGAAUUCUCGGGUGCCAA | 0.464
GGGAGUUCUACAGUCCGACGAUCUGGCGCCCCACCCCUCCUGAGAUGGAAUGGACUCGAUUUGAGCAAGCCAUGGCCCUCCAGCUCCCCAGCCCGGCUGCGGAGUUGCAGCAGGUCCUGCCCAUCGGGCACAUUGGAAUUCUCGGGUGCCAA | 0.224
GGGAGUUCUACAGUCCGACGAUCUACAUAACAGAAGAAACAACAAUAAGGAUACAAUUGUAUAUAAACACCUACUAUAACAUCCAUGUGUGUUUGGAUAAAGACCUCUUAGAACCAUGGAGAAAUUAACUCAGUGGAAUUCUCGGGUGCCAA | 0.448
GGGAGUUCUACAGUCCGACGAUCGUGAUGAAUGUACUAUGUCUGAACAUAGAAACUCGGGCUUGAGUGAGAAGAGCUUGCACAGCCAACGAGACACAUUGCCUUCUGGAGCUGGGAGACAAAGGAGGAAUUUAUGGAAUUCUCGGGUGCCAA | 3.89
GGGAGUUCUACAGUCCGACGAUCCUGUACUAGUUACUAUGAAAAUGGAAAUAAUUAUCUUAGAAUAUUUUCAAAGUAGAGCGUGAGCAUGUAUUUUUAGUGGGAGAGCUCUGAUAGUUGUUGGGAAUAUAUAAUGGAAUUCUCGGGUGCCAA | 1.99
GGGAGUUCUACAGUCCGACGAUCAGCUGGACAGAAAAGGGGCAGACACACCGAGGAUGCGAUUUAAAAUAAAUGCAGAUGUUUACUUGGAUGGAGCCUGUGGAGGCUCAGUGUUGACUCUCAUCUAGAAUGGUUGGAAUUCUCGGGUGCCAA | 5.01
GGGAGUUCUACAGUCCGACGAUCUCUCUACGAAUCUCAAUUCCAACUUCUCUGCAGAGUCUGUACAGUGAUUAAGCCAUGCCAGAUGGUCUUUGGUGCACACAGUUAUUUAAGAAUCCACUUCCACAGGUGGCUGGAAUUCUCGGGUGCCAA | 0.308
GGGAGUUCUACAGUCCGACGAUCAAUUGGUGAUGGACAGAUGGACAGAAUGCAGAGGUACAUAGAUGAGCUGAGGCUGAUCCAGCUCCCCUGAAAUUCAGAGUGUUAACUUUGUAGACCCUGCACAAUCUCUUUGGAAUUCUCGGGUGCCAA | 0.54
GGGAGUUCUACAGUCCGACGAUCAAAGAUAACCUAGUCGAUUGAAUUGGCCAUGGGAAGUUAGGUCACAGUCUUAUAAACAAAGUAAAUAGGACAGAGACUAAGUUUUAGGGAGACAUCUUGGCCUCCUAGGCUGGAAUUCUCGGGUGCCAA | 0.51
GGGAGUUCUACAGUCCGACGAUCGUCUGAGGUCACACUCUCUGCCCACUCACCUCCUUGGCUGACAUCGGUUGUGUUUGGUGCUGACACUCUGAUCCCGAAGCCAGGGAGCCCCAAGGGGCUGCAUGACCCUGUGGAAUUCUCGGGUGCCAA | 18.3

Series 4
Target: Sal-like protein 4, full length isoform B (SALL4, Homo sapiens, UniProt Q9UJQ4-2, residues 1-616)
Method: universal PBM
Form: double-stranded DNA, one strand shown
Medium: in vitro
Tested at: not given
Notes: 8-mer, flanks averaged, mean of replicates
Reading: higher = stronger binding
Strand | E-score
CATTGGAG | -0.00684
AAATGGTT | 0.199
AGTTCGGG | -0.0496
GTTTCTGA | -0.0836
CCAATACA | 0.236
CTAGCCTA | 0.0177
CCCTGCGA | -0.139
CTGCTAAA | -0.042
GCCCCAGC | -0.284
TCCCTCGA | -0.209
GGCTACTA | 0.102
CACTAAAG | 0.0136
ACTTAATG | 0.24
TAAACTCA | 0.131
CAATACGC | 0.141
TAAGTCTA | 0.058
GAGTACCC | -0.249
AATCACGC | -0.036
ACGATCCC | -0.179
ATAGTCAA | 0.17
CGTTCCGA | -0.208
CTATAGAG | 0.0866
CCTGCCCC | -0.311
CCAAGATC | -0.0713

Some of these lines once more (series 4):
Strand | E-score
ACGATCCC | -0.179
ATAGTCAA | 0.17
CGTTCCGA | -0.208
CTATAGAG | 0.0866
